Experimental data pooled from the literature.
Protocols differ between the studies behind these lines. Values joined by “and” are separate records of one study, mostly repeats; a detail may differ. ± gives the spread as reported.

Under “phospho-Met/total Met ratio”, CSc1cc(Oc2ccnc3[nH]c(=O)cnc23)ccc1NC(=O)Nc1cc(C(C)(C)C)nn1-c1ccccc1 is recorded as 0.75 (patient-derived cell lines, mean of three; RPPA; 1 µM, 4 h; relative to: DMSO).
CN(C)C(=O)c1cc2cnc(Nc3ccc(N4CCNCC4)cn3)nc2n1C1CCCC1 gave an IC50 of 2850 nM (HD-MB03; cell growth; 168 h).
CC1=CC[C@H]2[C@@H]([C@@H]1CC[C@H]1[C@]3(C)CC[C@H](O)C(C)(C)O[C@H]3CC[C@]1(C)O)C(C)(C)CC[C@]2(C)O: “intracellular [3H]-paclitaxel remaining” 56.4% (KB-C2 (P-gp overexpressing); drug efflux; 10 µM, 120 min).
With Cc1ccc2[nH]c(=O)c(CNC3CCCCC3)cc2c1 the Ca2+ mobilisation was 14.1 ± 0.15 (COS-7, untransfected; 500 µM, relative to vehicle, unit not given; relative to: 3 µM ionomycin response).
With Cc1cnc2ccc3c(c2n1)N1CCC(O)N=C1N3C (centres unmarked) the plating efficiency was 13% (BALB/c 3T3; colony formation; 5 µM).
For C=C[C@@]1(C)CC(=O)[C@]2(O)[C@@]3(C)[C@@H](O)CCC(C)(C)[C@@H]3[C@H](O)[C@H](OC(C)=O)[C@@]2(C)O1, PGD2 generation read “inhibited” (human cord blood-derived mast cells; 0.1 µM, added: LTD4).
With Cc1nn(-c2nc3c(F)cc(F)cc3s2)c(O)c1C(c1ccc(C(F)(F)F)cc1)c1c(C)nn(-c2nc3c(F)cc(F)cc3s2)c1O the inhibition was 19% and 20.7% and 13.8% and 25.8% and 24.8% (RAW-ISG; IFN luciferase reporter; 1.25 µM, added: HT-DNA).
For CC[C@]1(O)C[C@@H]2CN(CCc3c([nH]c4ccccc34)[C@@](C(=O)OC)(c3cc4c(cc3OC)N(C)[C@H]3[C@@](O)(C(=O)OC)[C@H](OC(C)=O)[C@]5(CC)C=CCN6CC[C@]43[C@@H]65)C2)C1, the IC50 was 44.8 nM (HD-MB03; cell growth; 168 h, DMSO).
CC(C)NCC(O)c1ccc(O)c(O)c1 (centres unmarked) has a sarcomere length of 1.77 µm (mouse ventricular cardiomyocytes; dose not given, 0.215 s).
c1ccc2[nH]ccc2c1 — result for “mRNA level, LS mean”: 2.2 counts per million (HCT-8; RNA-seq, measured: IGHE; concentration not given).
CCn1cc(-c2cc(Cn3ccnc3)cc3c2CCN([C@H](c2cc(OC)ccn2)C2CC2)C3=O)c(C(F)(F)F)n1 gave an EC50 of 6670 nM (AU565; cell growth, inhibitor; 120 h).
For C=Cc1c2[n-]c(c1C)/C=c1\[n-]/c(c(C)c1C=C)=C\c1[n-]c(c(CCC(=O)O)c1C)/C=c1\[n-]c(c(C)c1CCC(=O)O)=C2.[Sn+4], the fold change was 2.42 (SH-SY5Y; RNA-seq, measured: GREM1 mRNA; 5 µM, 5 h; relative to: untreated cells).
O=c1[nH]nc(OCCCc2ccc(Cl)cc2)c(NCc2cccnc2)c1Br — result for “normalized enrichment score”: 1.42 (HEK-293T; RNA-seq GSEA, measured: Hallmark apoptosis; concentration not given; direction not given).
O=C(/C=C/C=C/C=C/C1CCCCC1)NC1=C[C@@](O)(/C=C/C=C/C=C/C(=O)NC2=C(O)CCC2=O)[C@@H]2O[C@@H]2C1=O has a GI50 of 6490 nM (melho; cell growth, inhibitor, CellTiter-Glo luminescence; 78 h; relative to: day 0 cell count).
Under “spheroid area increase”, CC(C)(c1ccc(O)cc1)c1ccc(O)cc1 is recorded as 123% (HepG2 spheroids; planimetry; 5 µM, 0 to 24 h; relative to: mean area of 72 h spheroids).
Under “reversal of trafficking deficit”, C[N+]1(C)CCC(OC(=O)C(O)(c2ccccc2)C2CCCC2)C1 (centres unmarked) is recorded as 8.04% (primary rat hippocampal/cortical neuron-glia cultures; 1 µM, added: 1 µM α-synuclein oligomers).
CCCCc1nc(Cl)c(CO)n1Cc1ccc(-c2ccccc2-c2nn[nH]n2)cc1: “log2 fold change” -1.54 (human PBMC; RNA-seq, measured: STAB1 mRNA; 10 µg/mL, 24 h; relative to: untreated control).
For N#Cc1ccc(COC[C@H]2O[C@@H](n3c(NCc4ccc(Cl)c(Cl)c4)nc4c(N)ncnc43)[C@H](O)[C@@H]2O)cc1, the IC50 was 669 nM (HD-MB03).
For Cc1cc(Nc2ncc(Cl)c(Nc3ccccc3S(=O)(=O)C(C)C)n2)c(OC(C)C)cc1C1CCNCC1, “log2 fold change” read -1.54 (CLB-BAR; phosphoproteomics LC-MS/MS, measured: BAI2 phosphorylation; 200 nM, 60 min; relative to: untreated).
The mRNA level of COc1cc(/C=C/C(=O)N2CCC=CC2=O)cc(OC)c1OC is reported as 110 ± 4.1% (MDA-MB-468; quantitative RT-PCR, measured: MnSOD; 30 µM, 8 h; relative to: untreated).
Under “Hill coefficient GR curve”, Cc1nc(NC(=O)N2CCC[C@H]2C(N)=O)sc1-c1ccnc(C(C)(C)C(F)(F)F)c1 is recorded as 0.727 (HGC-27; cell growth, CellTiter-Glo; 120 h).
Under “reversal of trafficking deficit”, CN(C/C=C/C#CC(C)(C)C)Cc1cccc2ccccc12 is recorded as 24.2% (primary rat hippocampal/cortical neuron-glia cultures; 1 µM, added: 1 µM α-synuclein oligomers).
CO[C@H]1C(=O)[C@]2(C)[C@@H](OC)C[C@H]3OC[C@@]3(OC(C)=O)[C@H]2[C@H](OC(=O)c2ccccc2)[C@]2(O)C[C@H](OC(=O)[C@H](O)[C@@H](NC(=O)OC(C)(C)C)c3ccccc3)C(C)=C1C2(C)C gave an IC50 of 6.61 nM (HD-MB03; cell growth; 168 h, DMSO).
For O=C(C[C@@H](C(F)F)n1ccc(F)n1)N1CCC(O)(Cn2cnc3c(cnn3-c3ccc(F)cc3)c2=O)CC1, “cells in G1 phase” read 65.2% and 66.5% and 67.7% (CHP-212 parental (wild-type USP7); PI flow cytometry; 0.1 µM, 24 h).
For C#CCN(Cc1cnc2nc(N)nc(N)c2n1)c1ccc(C(=O)N2CCC(C(=O)OC)CC2)cc1, the mitochondrial toxicity was 1.07 ± 11.1% (786-O; high-content imaging, measured: MitoTracker Red uptake; 10 µM).
For Cn1nnc2c(C(N)=O)ncn2c1=O, IC50 read “inactive” (HD-MB03; 168 h).
COc1ccc(-n2nc(C(C)=O)s/c2=N\N=C(/C)c2ccc(NC(=O)c3ccc(Cl)cc3)cc2)cc1 has a viability of 3.49% (MCF7; 10 µM).
For O=C(c1ccc2[nH]ccc2c1)N1CCN(S(=O)(=O)c2ccc3[nH]c(=O)oc3c2)CC1, “6-thio-GTP in RNA” read 881 a.u. (HL-60; NUDT15 inhibitor, mass spectrometry; 10 µM, 16 h, added: 6-thioguanine 1 µM; higher = more incorporation).
For COc1cnc2cccc(N3CCc4c(cc(Cn5ccnc5C)cc4-c4cn(C)nc4C(F)(F)F)C3=O)c2c1, the EC50 was 54.1 nM (BICR6; cell growth; 120 h).
The viability of Nc1cccc2c1CN(C1CCC(=O)NC1=O)C2=O (centres unmarked) is reported as 110% (bone marrow CD138+ myeloma cells; XTT; 0.8 µM, phenol red-free RPMI).
Cc1cnc(NC2CCOCC2)nc1-n1cnc(C(=O)NC(CN)c2cc(F)cc(Cl)c2)c1 (centres unmarked) — result for “G2 phase cells”: 3.2% (A-375; flow cytometry; 1 µM, 24 h).
O=C1c2ccncc2C(=O)c2c1[nH]c1ccccc21: “total Drp1 protein level” “no effect” (pulmonary arterial smooth muscle cells, PAH patient; no effect; concentration not given).
With CCn1cc(-c2cc(Cn3ccoc3=N)cc3c2CCN([C@@H](C)c2cc(OC)ccn2)C3=O)c(C(F)(F)F)n1 the EC50 was 4030 nM (DMS-273; cell growth, inhibitor; 120 h).
With Cc1cccc(-c2[nH]c(CNc3ccccc3F)nc2-c2ccc3ncnn3c2)n1 the relative viability was 0.075 (bone marrow CD138+ myeloma cells; XTT; human; 2 µM; relative to: untreated).
With CC/C(=N\NC(=O)NCc1cccc(O)c1)c1ccc(O)c(C)c1O the protein level was 0.51 ± 0.34 (SK-OV-3; Western blot, measured: LATS; 20 µM, 1 h, 3D gellan gum culture, unit not given; relative to: β-actin).
For O=C(NOC[C@H](O)CO)c1ccc(F)c(F)c1Nc1ccc(I)cc1F, the viability was 14% (A-375; 0.1562 µM, 72 h).
With Cc1n[nH]c2nc(-c3ccc(Cl)cc3)c3c(NC(=O)c4ccccc4)nnc-3n12 the growth percent was 110% (A549/ATCC; NCI60 SRB; 10 µM).
Under “log2 fold change”, Cn1cc(-c2ccc(-c3cncc(Cl)c3N3CCC4(CCNC4=O)CC3)cc2)cn1 is recorded as 2.46 (COLO 205; gene expression, microarray, measured: TNFRSF12A (FN14) mRNA; concentration not given, 2 h; relative to: untreated cells).
C=CCn1c(=O)c2cnc(Nc3ccc(N4CCN(C)CC4)cc3)nc2n1-c1ccc2c(n1)[C@@](O)(CC)CC2: “G1 phase cells” 11.5% (NCI-H1048; flow cytometry; concentration not given).
Clc1nc(NCc2ccco2)c2[nH]cnc2n1 gave a ΔPSI of -0.321 (iPSC-derived cardiomyocytes; RNA-seq, measured: BCL11A chr2 exon ending 60462424; unit not given; relative to: DMSO minus compound).
CN(C)C/C=C/C(=O)Nc1ccc(C(=O)Nc2cccc(Nc3ncc(Cl)c(-c4c[nH]c5ccccc45)n3)c2)cc1 — result for “fold change in IC50”: 1.73 (HD-MB03; concentration not given, added: ribociclib NG; relative to: ribociclib over DMSO).
CCCCc1oc2ccc(NS(C)(=O)=O)cc2c1C(=O)c1ccc(OCCCN(CCCC)CCCC)cc1 gave a fold change of 2.3 fold (human embryonic stem cell aggregates; mRNA level, microarray, measured: SFRP2; 0.5 µM, 120 h; relative to: untreated, up-regulated).
The growth percent of CCCN1CCN(c2ccc3[nH]c(-c4ccc5[nH]c(-c6ccc(C(F)(F)F)cc6)nc5c4)nc3c2)CC1 is reported as -69.2% (SN12C; SRB; 10 µM, 48 h).
For COc1cc(Nc2c(C#N)cnc3cc(OCCCN4CCN(C)CC4)c(OC)cc23)c(Cl)cc1Cl, the IC50 was 3210 nM (HD-MB03; cell growth; 168 h, single agent).
The mitochondrial toxicity of COC(=O)C1CCN(C(=O)Cc2ccc(NCc3cnc4nc(N)nc(N)c4n3)cc2)CC1 is reported as -2.16 ± 12.1% (786-O; high-content imaging, measured: MitoTracker Red uptake; 10 µM).
CC(C)n1nc(-c2ccc3oc(N)nc3c2)c2c(N)ncnc21 gave an IC50 of 49.8 nM (HD-MB03; cell growth; 168 h, DMSO).
Cn1cc(Nc2nccc(-c3ccc4c(c3)CN(C3COC3)CC[C@H]4NC(=O)c3cn(C(C)(C)C)nn3)n2)cn1: “pathway activation z-score” -2.36 (mouse splenic B cells; measured: RhoGDI signalling; 30 mg/kg, IgD-activated in vivo; relative to: vehicle, direction not given).

Some of these lines once more:
For C#CCN(Cc1cnc2nc(N)nc(N)c2n1)c1ccc(C(=O)N2CCC(C(=O)OC)CC2)cc1, the mitochondrial toxicity was 1.07 ± 11.1% (786-O; high-content imaging, measured: MitoTracker Red uptake; 10 µM).
For Cn1nnc2c(C(N)=O)ncn2c1=O, IC50 read “inactive” (HD-MB03; 168 h).
COc1ccc(-n2nc(C(C)=O)s/c2=N\N=C(/C)c2ccc(NC(=O)c3ccc(Cl)cc3)cc2)cc1 has a viability of 3.49% (MCF7; 10 µM).
For O=C(c1ccc2[nH]ccc2c1)N1CCN(S(=O)(=O)c2ccc3[nH]c(=O)oc3c2)CC1, “6-thio-GTP in RNA” read 881 a.u. (HL-60; NUDT15 inhibitor, mass spectrometry; 10 µM, 16 h, added: 6-thioguanine 1 µM; higher = more incorporation).
For COc1cnc2cccc(N3CCc4c(cc(Cn5ccnc5C)cc4-c4cn(C)nc4C(F)(F)F)C3=O)c2c1, the EC50 was 54.1 nM (BICR6; cell growth; 120 h).
The viability of Nc1cccc2c1CN(C1CCC(=O)NC1=O)C2=O (centres unmarked) is reported as 110% (bone marrow CD138+ myeloma cells; XTT; 0.8 µM, phenol red-free RPMI).
Cc1cnc(NC2CCOCC2)nc1-n1cnc(C(=O)NC(CN)c2cc(F)cc(Cl)c2)c1 (centres unmarked) — result for “G2 phase cells”: 3.2% (A-375; flow cytometry; 1 µM, 24 h).
